Experimental data gathered from unrelated publications.
Each line is one published result; not all experiments were run side by side. Numbers after ± are the reported error.
Cell line: MV4-11

Structure (SMILES) | assay | setting | scale | quantity | result
COc1cc(C(=O)N(C)C)c2nccc(N3CCc4c(cc(Cn5ccnc5)cc4-c4cn(C)nc4C(F)(F)F)C3=O)c2c1 | cell growth or viability, ATP luminescence | 5 days |  | GI50 | 420 nM
COc1ccc(C[C@H]2COC(=O)[C@@H]2Cc2ccc(OCC(=O)Nc3ccc(C(=O)Nc4ccccc4N)cc3)c(OC)c2)cc1OC | cell growth or viability, CCK-8 | 48 h |  | IC50 | 750 nM
CCCNNC(=O)c1ccc(CNC(=O)c2ccccc2)cc1 | cell growth or viability, resazurin | 48 h |  | EC50 | 38 to 287 nM
Cc1ccc2cncc(N3CCc4c(cc(Cn5ccnc5)cc4-c4cn(C)nc4C(F)(F)F)C3=O)c2c1 | cell growth or viability, ATP luminescence | 5 days |  | GI50 | 42 nM
O=C1c2c(O)ccc(O)c2C(=O)c2c(NCCNCCO)ccc(NCCNCCO)c21 |  | 72 h, with: cytotoxic drug | below 1 means synergy | combination index | 0.82 ± 0.05
Cc1ncsc1-c1ccc(CNC(=O)[C@@H]2C[C@@H](O)CN2C(=O)[C@@H](NC(=O)C2(F)CC2)C(C)(C)C)c(OCCOc2ccc(CN3CCN(c4cc(-c5ccccc5O)nnc4N)CC3)cc2)c1 | cell proliferation, CellTiter-Glo | 168 h |  | IC50 | 28 nM
COc1cc(OC)c2nccc(N3CCc4c(cc(Cn5ccnc5)cc4-c4cn(C)nc4C(F)(F)F)C3=O)c2c1 | cell growth or viability, ATP luminescence | 5 days |  | GI50 | 18 nM
COc1ccc(C[C@H]2COC(=O)[C@@H]2Cc2ccc(OCCCCCCC(=O)NO)c(OC)c2)cc1OC | cell growth or viability, CCK-8 | 48 h |  | IC50 | 1660 nM
CC[C@@]1(O)C[C@H](O[C@H]2C[C@H](N(C)C)[C@H](O[C@H]3C[C@H](O)[C@H](O[C@H]4CCC(=O)[C@H](C)O4)[C@H](C)O3)[C@H](C)O2)c2c(cc3c(c2O)C(=O)c2c(O)cccc2C3=O)[C@H]1C(=O)OC |  | 72 h, with: cytotoxic drug | below 1 means synergy | combination index | 0.91 ± 0.06
COc1ccc(C[C@H]2COC(=O)[C@@H]2Cc2ccc(OCC(=O)NCCC(=O)Nc3ccccc3N)c(OC)c2)cc1OC | cell growth or viability, CCK-8 | 48 h |  | IC50 | > 5000 nM
CNC(=O)c1cc(OC)cc2c(N3CCc4c(cc(Cn5ccnc5)cc4-c4cn(C)nc4C(F)(F)F)C3=O)ccnc12 | cell growth or viability, ATP luminescence | 5 days |  | GI50 | 23 nM
COc1ccc(C[C@H]2COC(=O)[C@@H]2Cc2ccc(OCCCCCC(=O)NO)c(OC)c2)cc1OC | cell growth or viability, CCK-8 | 48 h |  | IC50 | 850 nM
COC(=O)C[C@](O)(CCCC(C)(C)O)C(=O)O[C@@H]1C(OC)=C[C@]23CCCN2CCc2cc4c(cc2[C@H]13)OCO4 |  | 72 h, with: cytotoxic drug | below 1 means synergy | combination index | 0.67 ± 0.06
C[C@@H]1CN(c2ccc(-c3cc(C(=O)NCCOCCOCCOCCOCCOCCOCCOCCOCCOCCNC(=O)/C=C/c4[nH]cc(C(=O)N[C@@H](CC(N)=O)c5ccc(F)c(Cl)c5)c4-c4ccc(Cl)cc4F)ccc3F)cc2NC(=O)c2c[nH]c(=O)cc2C(F)(F)F)C[C@H](C)N1C | cell growth or viability, ATP luminescence | 5 days |  | EC50 | 158 nM
CCn1cc(-c2cc(Cn3ccnc3C)cc3c2CCN([C@H](c2cc(OC)ccn2)C2CC2)C3=O)c(C(F)(F)F)n1 | cell growth or viability, ATP luminescence | 5 days |  | GI50 | 15 nM
COc1ccc(C[C@H]2COC(=O)[C@@H]2Cc2ccc(OCCCCC(=O)NO)c(OC)c2)cc1OC | cell growth or viability, CCK-8 | 48 h |  | IC50 | > 5000 nM
CCCNNC(=O)c1ccc(CNC(=O)/C=C/c2ccccc2)cc1 | cell growth or viability, resazurin | 48 h |  | EC50 | < 50 nM
COc1cc(C[C@H]2C(=O)OC[C@@H]2Cc2ccc(OC)c(OC)c2)ccc1O | cell growth, CCK-8 | 48 h |  | IC50 | 4270 ± 1680 nM
C[C@@H]1CN(c2ccc(-c3cc(C(=O)NCCOCCOCCOCCOCCNC(=O)/C=C/c4[nH]cc(C(=O)N[C@@H](CC(N)=O)c5ccc(F)c(Cl)c5)c4-c4ccc(Cl)cc4F)ccc3F)cc2NC(=O)c2c[nH]c(=O)cc2C(F)(F)F)C[C@H](C)N1C | cell growth or viability, ATP luminescence | 5 days |  | EC50 | 3290 nM
